{"data": "Published values pooled from the literature", "UCHL1": "Ubiquitin carboxyl-terminal hydrolase isozyme L1 (UCHL1, Homo sapiens, UniProt P09936)", "chain of UniProt P09936 (whole entry, looked up)": "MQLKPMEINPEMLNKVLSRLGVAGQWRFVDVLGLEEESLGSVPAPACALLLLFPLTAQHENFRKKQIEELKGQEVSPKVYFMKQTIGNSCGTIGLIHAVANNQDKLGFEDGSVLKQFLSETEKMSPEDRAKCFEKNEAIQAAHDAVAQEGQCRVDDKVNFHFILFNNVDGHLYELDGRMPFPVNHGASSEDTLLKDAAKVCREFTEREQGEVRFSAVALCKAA"}
{"SMILES": "CN(C)C(=O)c1cc2cnc(Nc3ccc(N4CCNCC4)cn3)nc2n1C1CCCC1", "system": "human, normal renal function, plasma", "conditions": "oral, 400 mg, single dose, adjusted geometric mean", "quantity": "AUC(0-last)", "value": "5500 ng·h/mL"}
{"SMILES": "CC(C)n1nc(-c2ccc3oc(N)nc3c2)c2c(N)ncnc21", "system": "human, plasma", "conditions": "oral, 30 mg once weekly, cycle 1 day 1", "quantity": "AUC(0-last)", "value": "1980 ng·h/mL"}
{"SMILES": "CC(C)NC(=O)COc1cccc(-c2nc(Nc3ccc4[nH]ncc4c3)c3ccccc3n2)c1", "system": "human male, plasma", "conditions": "oral, dose not given, day 13, adjusted geometric mean, together with: rosuvastatin", "quantity": "AUC(0-last)", "value": "13600 ng·h/mL"}
{"SMILES": "C=CC(=O)N(C)CCOc1c(N)ncnc1-c1cc(F)cc(NC(=O)c2ccc(C3CC3)cc2F)c1C", "system": "human", "conditions": "oral, 50 mg, day 3, median, given alone", "quantity": "AUC(0-last) per dose", "value": "4.61 ng·h/mL/mg"}
{"SMILES": "CC(F)(F)c1cc(F)ccc1-c1sc2cc(O)ccc2c1Oc1ccc(/C=C/C(=O)O)cc1", "system": "human patients, serum", "conditions": "oral, 300 mg twice daily, cycle 1 day 28, regular meal, mean", "quantity": "AUC(0-last)", "value": "16400 ng·h/mL"}
{"SMILES": "CCOc1cc(C=C(C#N)C(=O)Nc2nccs2)cc(Cl)c1O", "target or system": "UCHL1", "test": "covalent, intact protein LC-MS", "conditions": "12.5 µM", "quantity": "labelling", "value": "31.9%"}
{"SMILES": "CCOc1c([C@H](C)n2nc(C)c3c(N)ncnc32)cc(Cl)c(F)c1[C@@H]1CNC(=O)C1", "system": "human patients, plasma", "conditions": "oral, 30 mg, day 1, geometric mean", "quantity": "AUC(0-last)", "value": "9.63 µM·h"}
{"SMILES": "Cc1noc(C)c1-c1cc(C(O)(c2ccccn2)c2ccccn2)c2nc(C3CC3)[nH]c2c1", "system": "human patients, fasted, plasma", "conditions": "oral, 6 mg once daily, cycle 1 day 15, together with: enzalutamide once daily", "quantity": "AUC(0-last)", "value": "701 ng·h/mL"}
{"SMILES": "C=CC(=O)N1CCC[C@@H](n2c(=O)n(-c3ccc(Oc4ccccc4)cc3)c3c(N)nccc32)C1", "system": "human", "conditions": "oral, 60 mg", "scale": "reference: fed over fasted", "quantity": "AUC(0-last) fed/fasted ratio", "value": 2.24}
{"SMILES": "N#CC(=Cc1cc(F)ccc1F)C(=O)Nc1ccc(F)cc1F", "target or system": "UCHL1", "test": "covalent, intact protein LC-MS", "conditions": "12.5 µM", "quantity": "labelling", "value": "19.9%"}
{"SMILES": "COC(=O)N[C@@H](C)CNc1nccc(-c2cn(C(C)C)nc2-c2cc(Cl)cc(NS(C)(=O)=O)c2F)n1", "system": "humans, plasma", "conditions": "oral, dose not given, day 14, steady state, together with: binimetinib", "quantity": "AUC(0-last) median", "value": "13200 ng·h/mL"}
{"note": "Repeated from above:"}
{"SMILES": "CCOc1cc(C=C(C#N)C(=O)Nc2nccs2)cc(Cl)c1O", "target or system": "UCHL1", "test": "covalent, intact protein LC-MS", "conditions": "12.5 µM", "quantity": "labelling", "value": "31.9%"}
{"SMILES": "CCOc1c([C@H](C)n2nc(C)c3c(N)ncnc32)cc(Cl)c(F)c1[C@@H]1CNC(=O)C1", "system": "human patients, plasma", "conditions": "oral, 30 mg, day 1, geometric mean", "quantity": "AUC(0-last)", "value": "9.63 µM·h"}
